# Assay results of several laboratories.
# Lines come from different studies, so protocols differ. ± gives the spread as reported.
# RMS3: RMS3 (Lathyrus oleraceus, UniProt A0A109QYD3)
# Chain of UniProt A0A109QYD3 (whole entry, looked up): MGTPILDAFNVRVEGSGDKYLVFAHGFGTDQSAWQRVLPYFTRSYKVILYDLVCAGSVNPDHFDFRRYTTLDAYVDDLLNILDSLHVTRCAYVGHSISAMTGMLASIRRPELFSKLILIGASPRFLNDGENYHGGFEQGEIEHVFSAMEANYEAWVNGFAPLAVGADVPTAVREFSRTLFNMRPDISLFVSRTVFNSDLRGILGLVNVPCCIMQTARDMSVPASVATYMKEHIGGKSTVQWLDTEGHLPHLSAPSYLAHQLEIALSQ
# gdpP residues 84-659: gdpP, residues 84-659 (Bacillus subtilis, UniProt P37484)
# Chain of UniProt P37484 (84-659, looked up): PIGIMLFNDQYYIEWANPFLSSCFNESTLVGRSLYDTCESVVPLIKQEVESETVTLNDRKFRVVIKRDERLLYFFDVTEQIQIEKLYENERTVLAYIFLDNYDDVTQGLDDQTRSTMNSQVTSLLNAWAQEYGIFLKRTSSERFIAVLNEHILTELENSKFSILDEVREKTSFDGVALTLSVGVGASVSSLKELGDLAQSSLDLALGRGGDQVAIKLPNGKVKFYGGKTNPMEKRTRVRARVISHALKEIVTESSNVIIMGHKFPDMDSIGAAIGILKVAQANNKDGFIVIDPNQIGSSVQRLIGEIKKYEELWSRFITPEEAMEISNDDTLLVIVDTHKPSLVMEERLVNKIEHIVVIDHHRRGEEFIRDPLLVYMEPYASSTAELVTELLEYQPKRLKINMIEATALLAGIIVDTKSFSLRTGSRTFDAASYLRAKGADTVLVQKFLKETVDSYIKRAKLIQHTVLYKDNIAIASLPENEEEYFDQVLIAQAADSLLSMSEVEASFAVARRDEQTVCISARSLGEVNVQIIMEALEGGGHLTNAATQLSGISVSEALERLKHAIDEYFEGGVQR
# CASP1: Caspase-1 (CASP1, Homo sapiens, UniProt P29466)
# Chain of UniProt P29466 (whole entry, looked up): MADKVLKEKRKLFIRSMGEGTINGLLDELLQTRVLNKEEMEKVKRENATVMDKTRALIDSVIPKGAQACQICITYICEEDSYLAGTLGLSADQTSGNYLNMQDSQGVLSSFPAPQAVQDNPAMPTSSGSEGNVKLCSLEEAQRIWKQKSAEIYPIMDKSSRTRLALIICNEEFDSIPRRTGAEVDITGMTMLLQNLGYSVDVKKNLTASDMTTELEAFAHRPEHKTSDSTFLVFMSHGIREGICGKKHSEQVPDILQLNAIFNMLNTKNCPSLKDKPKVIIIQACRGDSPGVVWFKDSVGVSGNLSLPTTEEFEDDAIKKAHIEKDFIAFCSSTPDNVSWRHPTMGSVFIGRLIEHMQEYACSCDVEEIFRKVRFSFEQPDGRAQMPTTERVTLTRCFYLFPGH
# CTSL: Procathepsin L (CTSL, Homo sapiens, UniProt P07711)
# Chain of UniProt P07711 (whole entry, looked up): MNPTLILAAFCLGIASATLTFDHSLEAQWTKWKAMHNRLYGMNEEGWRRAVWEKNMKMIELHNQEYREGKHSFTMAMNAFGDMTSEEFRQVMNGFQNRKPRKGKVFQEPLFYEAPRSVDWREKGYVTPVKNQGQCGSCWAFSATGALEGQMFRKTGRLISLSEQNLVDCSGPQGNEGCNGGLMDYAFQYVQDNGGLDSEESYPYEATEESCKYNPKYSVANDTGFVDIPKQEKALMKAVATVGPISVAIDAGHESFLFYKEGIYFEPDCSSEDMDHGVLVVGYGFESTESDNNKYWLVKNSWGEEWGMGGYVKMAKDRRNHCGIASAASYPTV
# ALB: Albumin (ALB, Bos taurus, UniProt P02769)
# Chain of UniProt P02769 (whole entry, looked up): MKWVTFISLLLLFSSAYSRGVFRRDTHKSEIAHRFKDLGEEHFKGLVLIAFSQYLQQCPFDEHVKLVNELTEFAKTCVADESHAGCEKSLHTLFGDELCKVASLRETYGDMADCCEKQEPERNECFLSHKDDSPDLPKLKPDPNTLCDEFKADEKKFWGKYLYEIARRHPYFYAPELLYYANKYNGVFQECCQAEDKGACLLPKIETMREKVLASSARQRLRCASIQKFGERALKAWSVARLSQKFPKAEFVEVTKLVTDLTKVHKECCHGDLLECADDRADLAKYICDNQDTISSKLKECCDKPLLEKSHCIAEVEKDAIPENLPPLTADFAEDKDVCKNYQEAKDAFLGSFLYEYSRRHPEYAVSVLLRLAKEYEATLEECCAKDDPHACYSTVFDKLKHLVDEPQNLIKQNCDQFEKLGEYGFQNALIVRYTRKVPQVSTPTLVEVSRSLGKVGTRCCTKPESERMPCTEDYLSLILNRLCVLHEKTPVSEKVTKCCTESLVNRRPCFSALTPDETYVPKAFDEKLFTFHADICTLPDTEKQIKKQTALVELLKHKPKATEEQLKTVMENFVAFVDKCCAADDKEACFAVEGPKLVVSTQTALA
# Chain of UniProt P21564 (whole entry, unmodified, looked up): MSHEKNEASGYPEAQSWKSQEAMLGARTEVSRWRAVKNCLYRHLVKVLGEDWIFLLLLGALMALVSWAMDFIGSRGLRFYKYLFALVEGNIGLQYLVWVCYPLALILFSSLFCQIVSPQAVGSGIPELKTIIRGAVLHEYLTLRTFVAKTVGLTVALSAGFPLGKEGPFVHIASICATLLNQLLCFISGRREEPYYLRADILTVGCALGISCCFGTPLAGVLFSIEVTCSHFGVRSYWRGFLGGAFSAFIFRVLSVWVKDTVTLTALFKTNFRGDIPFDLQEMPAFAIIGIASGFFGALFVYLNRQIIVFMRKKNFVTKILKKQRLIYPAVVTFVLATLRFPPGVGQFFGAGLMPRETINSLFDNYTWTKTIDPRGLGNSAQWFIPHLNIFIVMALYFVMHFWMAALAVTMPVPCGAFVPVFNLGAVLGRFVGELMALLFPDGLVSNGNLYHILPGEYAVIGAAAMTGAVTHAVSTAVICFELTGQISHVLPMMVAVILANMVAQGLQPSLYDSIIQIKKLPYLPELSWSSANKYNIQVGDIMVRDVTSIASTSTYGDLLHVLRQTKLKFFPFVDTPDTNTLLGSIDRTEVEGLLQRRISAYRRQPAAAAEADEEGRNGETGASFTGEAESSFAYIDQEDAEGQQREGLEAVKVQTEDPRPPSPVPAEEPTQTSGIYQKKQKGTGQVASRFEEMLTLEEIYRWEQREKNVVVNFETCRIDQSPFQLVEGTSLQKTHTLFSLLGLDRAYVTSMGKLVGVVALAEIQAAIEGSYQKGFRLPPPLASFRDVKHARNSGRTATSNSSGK
# Chain of UniProt Q9Y4K0 (whole entry, looked up): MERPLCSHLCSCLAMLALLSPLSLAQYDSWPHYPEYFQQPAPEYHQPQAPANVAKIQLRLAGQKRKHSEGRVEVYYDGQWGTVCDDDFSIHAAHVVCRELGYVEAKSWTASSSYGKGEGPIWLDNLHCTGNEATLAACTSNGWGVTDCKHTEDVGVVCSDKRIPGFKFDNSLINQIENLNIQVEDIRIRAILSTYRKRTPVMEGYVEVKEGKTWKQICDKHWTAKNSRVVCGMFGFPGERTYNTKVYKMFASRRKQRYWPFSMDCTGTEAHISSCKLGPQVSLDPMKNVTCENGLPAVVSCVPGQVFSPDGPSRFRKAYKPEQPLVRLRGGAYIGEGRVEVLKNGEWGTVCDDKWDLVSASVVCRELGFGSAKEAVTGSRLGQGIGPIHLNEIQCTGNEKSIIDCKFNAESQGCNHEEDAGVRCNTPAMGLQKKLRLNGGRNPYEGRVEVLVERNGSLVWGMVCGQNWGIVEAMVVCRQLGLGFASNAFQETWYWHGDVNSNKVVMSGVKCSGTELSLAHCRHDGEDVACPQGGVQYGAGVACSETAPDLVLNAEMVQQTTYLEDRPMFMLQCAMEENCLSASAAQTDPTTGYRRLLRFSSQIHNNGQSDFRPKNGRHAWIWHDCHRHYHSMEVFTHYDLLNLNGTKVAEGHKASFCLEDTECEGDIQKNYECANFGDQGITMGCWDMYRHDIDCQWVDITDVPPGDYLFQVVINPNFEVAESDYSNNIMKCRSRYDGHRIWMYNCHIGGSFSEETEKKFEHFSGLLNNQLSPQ
# Chain of UniProt Q9VNB5 (whole entry, looked up): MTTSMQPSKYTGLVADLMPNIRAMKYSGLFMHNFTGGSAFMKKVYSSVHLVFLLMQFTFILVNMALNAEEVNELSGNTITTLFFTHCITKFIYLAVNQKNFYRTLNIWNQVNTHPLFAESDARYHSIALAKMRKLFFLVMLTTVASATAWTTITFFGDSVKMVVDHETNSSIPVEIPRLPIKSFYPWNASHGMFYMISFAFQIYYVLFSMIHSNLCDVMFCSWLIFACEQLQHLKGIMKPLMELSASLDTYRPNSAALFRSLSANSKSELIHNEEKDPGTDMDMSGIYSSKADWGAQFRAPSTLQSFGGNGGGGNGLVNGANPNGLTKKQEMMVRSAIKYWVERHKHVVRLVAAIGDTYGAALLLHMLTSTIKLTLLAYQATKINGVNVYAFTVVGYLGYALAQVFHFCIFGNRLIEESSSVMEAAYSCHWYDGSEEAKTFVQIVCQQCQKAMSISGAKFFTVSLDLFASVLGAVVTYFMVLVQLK
# Chain of UniProt P15328 (whole entry, looked up): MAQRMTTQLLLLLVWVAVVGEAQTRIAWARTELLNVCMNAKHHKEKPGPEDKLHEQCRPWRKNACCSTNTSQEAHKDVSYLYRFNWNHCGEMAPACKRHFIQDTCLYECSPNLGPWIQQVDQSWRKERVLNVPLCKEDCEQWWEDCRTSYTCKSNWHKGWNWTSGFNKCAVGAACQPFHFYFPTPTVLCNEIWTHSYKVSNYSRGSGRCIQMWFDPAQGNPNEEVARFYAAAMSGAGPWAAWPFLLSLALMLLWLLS
# Chain of UniProt O66465 (whole entry, unmodified, looked up): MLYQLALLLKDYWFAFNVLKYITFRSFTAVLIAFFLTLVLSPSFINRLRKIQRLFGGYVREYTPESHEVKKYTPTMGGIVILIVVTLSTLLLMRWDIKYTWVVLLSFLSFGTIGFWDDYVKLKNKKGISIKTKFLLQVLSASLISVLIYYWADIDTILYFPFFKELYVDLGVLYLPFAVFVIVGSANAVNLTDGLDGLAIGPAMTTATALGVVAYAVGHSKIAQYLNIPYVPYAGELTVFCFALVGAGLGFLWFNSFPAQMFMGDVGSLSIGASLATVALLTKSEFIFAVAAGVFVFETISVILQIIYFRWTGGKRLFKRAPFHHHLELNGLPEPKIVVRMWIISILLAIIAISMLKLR
Compound,target,assay,test system,setting,scale,quantity,result
CC1=C[C@H](O/C=C2/C(=O)O[C@@H]3c4ccccc4C[C@H]23)OC1=O (racemic),RMS3,differential scanning fluorimetry,,concentration not given,,melting temperature decrease,8 °C
c1ccc(CN2CCOCCOCCN(CCCCCCCCCCN3CCOCCOCCN(CCCCCCCCCCN4CCOCCOCCN(Cc5ccccc5)CCOCCOCC4)CCOCCOCC3)CCOCCOCC2)cc1,"Quinolone resistance protein NorA (Staphylococcus aureus, UniProt P0A0J7)",inhibitor,1199B,"4 µM, 20 min",,ethidium bromide accumulation,no effect
Cc1cc(S(=O)(=O)Nc2ncccn2)c(F)cc1N(C)C1CCN([C@H](C)c2ccccc2)CC1,"SCN8A (Homo sapiens, UniProt Q9UQD0)","ion current, inhibitor, automated patch clamp",,,reference: resting (-120 mV) over inactivated state,IC50 ratio,> 1000 fold
COc1ccccc1C(=O)Nc1cccc(-c2nc3ncccc3o2)c1,"Nucleoside transporter 1 (Plasmodium vivax, UniProt A5K8B0, D23E)","adenosine uptake, inhibitor",,D23E mutant,reference: D23E mutant over wild type,IC50 ratio,~3.5 fold
Nc1ncc2ncn([C@@H]3O[C@@H]4COP(=O)(O)O[C@H]5[C@@H](O)[C@H](n6cnc7cnc(N)nc76)O[C@@H]5COP(=O)(O)O[C@H]4[C@H]3O)c2n1,gdpP residues 84-659,HPLC,,concentration not given,"reference: c-di-AMP, higher = slower hydrolysis",hydrolysis rate fold decrease,2.4
CC(=O)N[C@@H](CC(C)C)C(=O)N[C@@H](CCC(=O)O)C(=O)N[C@@H](Cc1c[nH]cn1)C(=O)N[C@@H](CC(=O)O)C(=O)Nc1ccc2c(C)cc(=O)oc2c1,CASP1,"substrate cleavage, substrate, fluorogenic AMC release",,enzyme 0.25 activity units/µL,,Vmax,2700 ± 85.5 RFU/min
CCCn1c(SCC(=O)N2CCc3cc(CC)ccc32)nnc1-c1cccnc1,"Orco (Drosophila melanogaster, UniProt Q9VNB5)","calcium mobilization, agonist",HEK293 expressing Orco,,reference: VUAA1 maximum,efficacy,99%
Cc1cc(C)nc(Sc2nc3sccn3c2[N+](=O)[O-])n1,CTSL,FRET,,,,Hill slope,1.33
CC[C@H](C)[C@H](N)C(=O)N[C@@H](CC(N)=O)C(=O)N[C@@H](CCCCN)C(=O)N[C@@H](CCC(N)=O)C(=O)NCC(=O)N[C@@H](CC(=O)O)C(=O)N[C@H](C(=O)N[C@H](C(=O)N[C@H](C(=O)N[C@@H](CC(C)C)C(=O)N[C@@H](CO)C(=O)N[C@@H](CC(N)=O)C(=O)NCC(=O)N[C@@H](CC(N)=O)C(=O)N[C@H](C(=O)N[C@@H](CCC(N)=O)C(=O)N[C@@H](CC(C)C)C(=O)N[C@H](C(N)=O)[C@@H](C)O)[C@@H](C)O)C(C)C)[C@@H](C)O)C(C)C,"PPG and sAP, Leishmania",surface plasmon resonance,,,reference: PPG over sAP,binding ratio,9 fold
CC1=C(C)[C@H](Oc2c(F)cc3c(C)cc(=O)oc3c2F)OC1=O,RMS3,"enzyme activity, substrate, DiFMU release",,pre-steady state,,K1/2,1.56 µM
Cc1ccc2c(n1)c(-c1cccc(S(C)(=O)=O)c1)c(C)n2C/C(F)=C/CN,"LOXL2 (Homo sapiens, UniProt Q9Y4K0)","enzyme activity, activity-based probe",healthy human volunteers,"oral, 100 mg, 24 h after last dose, multiple ascending dose",,remaining activity,6%
CC(=O)N[C@@H](Cc1c[nH]c2ccccc12)C(=O)N[C@@H](CCC(=O)O)C(=O)N[C@@H](Cc1c[nH]cn1)C(=O)N[C@@H](CC(=O)O)C(=O)Nc1ccc2c(C)cc(=O)oc2c1,CASP1,"substrate cleavage, substrate, fluorogenic AMC release",,enzyme 0.25 activity units/µL,,Vmax,3500 ± 121 RFU/min
CCN(Cc1ccccc1)C(=O)CCc1nc(CN2CCN(C(=O)Cc3ccc(OC)c(OC)c3)CC2)no1,"Sodium channel protein type 11 subunit alpha (Scn11a, Rattus norvegicus, UniProt O88457)",whole-cell patch clamp,rat DRG neurons,1 µM,,V1/2 of activation,-39.5 ± 1.26 mV
C[C@H](NC(=O)[C@@H]1CCCN1C(=O)[C@@H](N)Cc1ccc(O)cc1)C(=O)O,"Aminopeptidase N (ANPEP, Sus scrofa, UniProt P15145)","endomorphin-1 degradation, inhibitor, RP-HPLC",,"0 to 30 min, pH 7.4, 37 °C, together with: endomorphin-1",,degradation rate constant,1.58 ± 0.05 min⁻¹
CC(=O)N[C@@H](Cc1c[nH]cn1)C(=O)N[C@@H](CCCNC(=N)N)C(=O)N[C@@H](CCCNC(=N)N)C(=O)N[C@@H](CCCNC(=N)N)C(=O)N[C@@H](CCCNC(=N)N)C(=O)N[C@@H](CCCNC(=N)N)C(=O)N[C@@H](CCCNC(=N)N)C(=O)N[C@@H](CCCNC(=N)N)C(=O)N[C@@H](CCCNC(=N)N)C(=O)N[C@@H](Cc1c[nH]cn1)C(N)=O,ALB,fluorescence quenching,,concentration not given,,number of binding sites,1.17
Nc1nc2c(O)cc(N3CC3)cc2s1,"Histone-lysine N-methyltransferase, H3 lysine-36 specific, SET domain (NSD1, Homo sapiens, UniProt Q96L73)",mass spectrometry,NSD1 SET domain 1 µM,"10 µM, 8 h, 32 °C",,covalent engagement,32%
O=C(Nc1cccc(-c2nn[nH]n2)c1)c1cc(-c2ncccn2)cc(C(F)(F)F)c1,CTX-M-27 beta-lactamase,surface plasmon resonance,,,,Kd/Ki difference,2 to 3 fold
O=C(O)c1ccc(NC(=O)c2cccc(CC3CCCCC3)n2)c(Cc2ccccc2)c1,"Capsid scaffolding protein, protease domain (Human herpesvirus 8 type P, UniProt Q2HRB6, R82Q)","enzyme activity, inhibitor",,pH 8,reference: mutant over wild type,IC50 ratio,3 to 4 fold
C=Cc1cc(OC)c2c(c1)c(=O)oc1c2cc(OC)c2c(O)ccc([C@@H]3O[C@H](C)[C@H](O)[C@@](C)(O)[C@H]3O)c21,"Bifunctional protein GlmU (Staphylococcus aureus, UniProt Q5HIH6, G277S)","binding, microscale thermophoresis",,,reference: G277S mutant over wild type,Kd fold increase,10.4 fold
CC(C)CC(NC(=O)C(NC(=O)NC(C(=O)O)C(C)C)C1CCNC(=N)N1)C(=O)NCCCNC(C(=O)O)C(OC1OC(CN)C(O)C1O)C1OC(n2ccc(=O)[nH]c2=O)C(O)C1O (centres unmarked),"mraY (Aquifex aeolicus, UniProt O66465)","binding, isothermal titration calorimetry",,"wild type, without Mg2+",,ΔS,6.5 ± 2 cal/mol/K
O=C(Nc1cccc(-c2nn[nH]n2)c1)c1cc(-c2ccccc2)cc(C(F)(F)F)c1,CTX-M-27 beta-lactamase,surface plasmon resonance,,,,Kd/Ki difference,~4 fold
N=C(N)SCc1ccc(B(O)O)cc1,CTSL,"enzyme activity, inhibitor",,"up to 10 µM, together with: Z-FR-AMC 10 µM",,IC50,inactive
Oc1ccc(O)c2ccccc12,"PAK1 (Homo sapiens, UniProt Q13153, T423E)",inhibitor,,"40 µM, 0.5 h",,MBP phosphorylation,decreased
CC(=O)NC(Cc1ccc(Br)c(Cl)c1)C(=O)N[C@@H](C)C(=O)N1CCC[C@H]1C(=O)N1CCC[C@H]1C(=O)N[C@@H](CCC(=O)O)C(=O)N[C@@H](Cc1c[nH]cn1)C(=O)N[C@@H](CO)C(=O)N[C@H](C(=O)N[C@@H](C)C(N)=O)[C@@H](C)OP(=O)(O)O (some centres unmarked),"CSNK1G3 (Homo sapiens, UniProt Q9Y6M4)",,,10 µM,,inhibition,0.42 ± 0.02%
NC(=NN=Cc1cccs1)[S][Ru+]([Cl])([P](c1ccccc1)(c1ccccc1)c1ccccc1)[P](c1ccccc1)(c1ccccc1)c1ccccc1.[Cl-],ALB,fluorescence quenching,,"together with: warfarin, site I marker",,quenching rate constant,1.63e+11 M⁻¹ s⁻¹
CN(C)c1ncnc2c1ncn2[C@@H]1O[C@@H]2COP(=O)(O)O[C@H]3[C@@H](O)[C@H](n4cnc5c(N(C)C)ncnc54)O[C@@H]3COP(=O)(O)O[C@H]2[C@H]1O,gdpP residues 84-659,"substrate, HPLC",,"100 µM, 37 °C, upper limit if undegraded 24 h, together with: enzyme 1 µM",,degradation rate,≤ 0.001 mol/min/mol enzyme
O=C1SCCC1NC(C(=O)NCc1ccccc1)C1CC1 (centres unmarked),"TST (Homo sapiens, UniProt Q16762)",activator,,"17.1 µM, versus sodium thiosulfate, together with: KCN 60 mM",,Vmax,0.37 ± 0.04 mM/s
NC(CNC(CNC(CC(=O)O)C(=O)O)C(=O)O)C(=O)O (centres unmarked),OXA-48,"enzyme activity, inhibitor",,"enzyme 1 nM, together with: nitrocefin 30 µM",,IC50,no effect
CC(C)P(=[Se])(NP(=[Se])(C(C)C)C(C)C)C(C)C,"Alpha-amylase (Bacillus subtilis, UniProt P00691)","binding, Van't Hoff analysis",,"pH 6.8, 298–310 K",,ΔS,0.818 kJ/mol/K
O=C(O)COc1ccc(Cl)cc1,"Chloride channel protein (Torpedo marmorata, UniProt P21564, C212S)","single-channel current, noise analysis",,"20 mM, -80 mV",,higher corner frequency,920 Hz
Nc1nc2ncc(CNc3ccc(C(=O)N[C@@H](CCC(=O)NCCOCCOCCNC(=O)CN4CCN5CCN(CC4)CC(=O)[O][Al]([18F])[O]C(=O)C5)C(=O)O)cc3)nc2c(=O)[nH]1,"FOLR1 (Homo sapiens, UniProt P15328)",radioligand saturation binding,CAL-51 xenograft homogenate,,,Bmax,36 nM
O=C(C[P+]([Au-][Cl])(c1ccccc1)c1ccccc1)[O][Ti+2][O]C(=O)C[P+]([Au-][Cl])(c1ccccc1)c1ccccc1.c1cc[cH-]c1.c1cc[cH-]c1,PI3 kinases,inhibitor,,up to 100 µM,,PI3 kinase activity,inactive
CCCCCCc1ccc(Oc2ccccc2C#N)c(O)c1,"Enoyl-[acyl-carrier-protein] reductase [NADPH] FabI (Staphylococcus aureus, UniProt Q6GI75, K41N/R40Q/S44L)",,,,,dissociation rate constant,0.08 ± 0.01 h⁻¹
O=C(NC1CCSC1=O)C1CCC1 (centres unmarked),"rhlR (Pseudomonas aeruginosa, UniProt P54292)","reporter gene, agonist, refers to: rhlI-gfp fluorescence",PAO-JP2 reporter,,,maximal activation,90%
CN1/C(=C/C=C/C=C/C2=[N+](CCCCCC(=O)NCCCCCCCCN3[C@H]4[C@H](O)[C@@H](O)[C@H](O[C@@H]5OC[C@@H](O)[C@H](O)[C@H]5O)C[C@H]43)c3ccccc3C2(C)C)C(C)(C)c2ccccc21 (some centres unmarked),"Exo-1,4-beta-xylosidase xlnD (xlnD, Emericella nidulans, UniProt Q5BAS1)",covalent inhibitor,Aspergillus nidulans,"pH 4.5, ambient, together with: 4MU-β-D-xyloside",,kinact,0.00583 s⁻¹

# Repeated from above:
Compound,target,assay,test system,setting,scale,quantity,result
Oc1ccc(O)c2ccccc12,"PAK1 (Homo sapiens, UniProt Q13153, T423E)",inhibitor,,"40 µM, 0.5 h",,MBP phosphorylation,decreased
CC(C)CC(NC(=O)C(NC(=O)NC(C(=O)O)C(C)C)C1CCNC(=N)N1)C(=O)NCCCNC(C(=O)O)C(OC1OC(CN)C(O)C1O)C1OC(n2ccc(=O)[nH]c2=O)C(O)C1O (centres unmarked),"mraY (Aquifex aeolicus, UniProt O66465)","binding, isothermal titration calorimetry",,"wild type, without Mg2+",,ΔS,6.5 ± 2 cal/mol/K
Nc1nc2c(O)cc(N3CC3)cc2s1,"Histone-lysine N-methyltransferase, H3 lysine-36 specific, SET domain (NSD1, Homo sapiens, UniProt Q96L73)",mass spectrometry,NSD1 SET domain 1 µM,"10 µM, 8 h, 32 °C",,covalent engagement,32%
CN(C)c1ncnc2c1ncn2[C@@H]1O[C@@H]2COP(=O)(O)O[C@H]3[C@@H](O)[C@H](n4cnc5c(N(C)C)ncnc54)O[C@@H]3COP(=O)(O)O[C@H]2[C@H]1O,gdpP residues 84-659,"substrate, HPLC",,"100 µM, 37 °C, upper limit if undegraded 24 h, together with: enzyme 1 µM",,degradation rate,≤ 0.001 mol/min/mol enzyme
O=C(O)c1ccc(NC(=O)c2cccc(CC3CCCCC3)n2)c(Cc2ccccc2)c1,"Capsid scaffolding protein, protease domain (Human herpesvirus 8 type P, UniProt Q2HRB6, R82Q)","enzyme activity, inhibitor",,pH 8,reference: mutant over wild type,IC50 ratio,3 to 4 fold
O=C(O)COc1ccc(Cl)cc1,"Chloride channel protein (Torpedo marmorata, UniProt P21564, C212S)","single-channel current, noise analysis",,"20 mM, -80 mV",,higher corner frequency,920 Hz
